Experimental data gathered from unrelated publications.
Compare with care: the assays were run in different laboratories.
Vesicular acetylcholine transporter: Vesicular acetylcholine transporter (Rattus norvegicus, UniProt Q62666)
Chain of UniProt Q62666 (whole entry, looked up): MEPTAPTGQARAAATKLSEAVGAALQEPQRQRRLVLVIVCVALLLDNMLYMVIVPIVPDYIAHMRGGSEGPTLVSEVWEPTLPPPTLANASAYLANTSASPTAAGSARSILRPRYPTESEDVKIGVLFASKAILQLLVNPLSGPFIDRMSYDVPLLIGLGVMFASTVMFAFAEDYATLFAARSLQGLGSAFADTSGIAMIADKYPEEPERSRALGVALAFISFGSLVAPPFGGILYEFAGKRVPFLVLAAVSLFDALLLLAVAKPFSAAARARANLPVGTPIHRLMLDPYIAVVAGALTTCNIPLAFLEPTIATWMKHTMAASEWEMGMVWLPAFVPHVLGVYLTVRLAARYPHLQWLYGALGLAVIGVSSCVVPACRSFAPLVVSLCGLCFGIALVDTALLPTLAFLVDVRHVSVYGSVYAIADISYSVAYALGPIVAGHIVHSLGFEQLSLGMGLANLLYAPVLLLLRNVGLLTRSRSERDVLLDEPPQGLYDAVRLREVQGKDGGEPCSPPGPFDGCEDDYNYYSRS
PTGS2: Prostaglandin G/H synthase 2 (PTGS2, Homo sapiens, UniProt P35354)
Chain of UniProt P35354 (whole entry, looked up): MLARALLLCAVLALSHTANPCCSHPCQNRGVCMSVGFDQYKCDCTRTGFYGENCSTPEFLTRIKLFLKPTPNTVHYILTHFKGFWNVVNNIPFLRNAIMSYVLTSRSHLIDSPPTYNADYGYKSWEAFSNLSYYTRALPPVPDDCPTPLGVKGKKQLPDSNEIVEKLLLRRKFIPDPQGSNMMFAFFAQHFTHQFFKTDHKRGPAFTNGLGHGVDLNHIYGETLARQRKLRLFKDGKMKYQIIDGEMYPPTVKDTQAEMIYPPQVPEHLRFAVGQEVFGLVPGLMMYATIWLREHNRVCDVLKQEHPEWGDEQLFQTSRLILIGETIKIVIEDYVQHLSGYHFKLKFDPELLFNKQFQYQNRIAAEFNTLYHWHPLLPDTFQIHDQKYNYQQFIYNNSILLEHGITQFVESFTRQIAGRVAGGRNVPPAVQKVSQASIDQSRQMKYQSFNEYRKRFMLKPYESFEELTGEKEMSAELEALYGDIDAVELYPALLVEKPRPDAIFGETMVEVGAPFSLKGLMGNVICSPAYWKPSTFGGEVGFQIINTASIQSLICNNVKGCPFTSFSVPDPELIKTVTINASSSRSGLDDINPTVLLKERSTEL
Chain of UniProt P07384 (whole entry, looked up): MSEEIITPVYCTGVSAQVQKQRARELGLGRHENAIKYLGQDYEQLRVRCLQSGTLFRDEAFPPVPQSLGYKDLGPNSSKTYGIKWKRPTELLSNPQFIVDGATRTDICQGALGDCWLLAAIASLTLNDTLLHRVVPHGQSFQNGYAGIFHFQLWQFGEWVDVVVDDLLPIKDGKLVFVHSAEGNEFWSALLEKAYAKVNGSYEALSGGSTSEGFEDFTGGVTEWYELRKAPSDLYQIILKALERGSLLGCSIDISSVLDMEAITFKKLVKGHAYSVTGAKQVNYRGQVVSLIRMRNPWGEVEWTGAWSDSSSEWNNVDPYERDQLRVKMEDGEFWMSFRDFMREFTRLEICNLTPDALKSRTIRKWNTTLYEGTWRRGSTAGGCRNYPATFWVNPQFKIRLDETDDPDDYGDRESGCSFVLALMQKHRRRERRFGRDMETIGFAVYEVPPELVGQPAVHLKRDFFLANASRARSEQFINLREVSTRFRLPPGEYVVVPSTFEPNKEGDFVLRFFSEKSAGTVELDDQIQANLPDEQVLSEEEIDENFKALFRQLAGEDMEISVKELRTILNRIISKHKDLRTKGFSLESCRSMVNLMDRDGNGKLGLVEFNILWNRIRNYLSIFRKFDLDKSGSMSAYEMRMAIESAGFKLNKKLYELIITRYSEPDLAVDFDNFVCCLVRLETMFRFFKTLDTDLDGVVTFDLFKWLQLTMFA
Chain of UniProt P08069 (whole entry, looked up): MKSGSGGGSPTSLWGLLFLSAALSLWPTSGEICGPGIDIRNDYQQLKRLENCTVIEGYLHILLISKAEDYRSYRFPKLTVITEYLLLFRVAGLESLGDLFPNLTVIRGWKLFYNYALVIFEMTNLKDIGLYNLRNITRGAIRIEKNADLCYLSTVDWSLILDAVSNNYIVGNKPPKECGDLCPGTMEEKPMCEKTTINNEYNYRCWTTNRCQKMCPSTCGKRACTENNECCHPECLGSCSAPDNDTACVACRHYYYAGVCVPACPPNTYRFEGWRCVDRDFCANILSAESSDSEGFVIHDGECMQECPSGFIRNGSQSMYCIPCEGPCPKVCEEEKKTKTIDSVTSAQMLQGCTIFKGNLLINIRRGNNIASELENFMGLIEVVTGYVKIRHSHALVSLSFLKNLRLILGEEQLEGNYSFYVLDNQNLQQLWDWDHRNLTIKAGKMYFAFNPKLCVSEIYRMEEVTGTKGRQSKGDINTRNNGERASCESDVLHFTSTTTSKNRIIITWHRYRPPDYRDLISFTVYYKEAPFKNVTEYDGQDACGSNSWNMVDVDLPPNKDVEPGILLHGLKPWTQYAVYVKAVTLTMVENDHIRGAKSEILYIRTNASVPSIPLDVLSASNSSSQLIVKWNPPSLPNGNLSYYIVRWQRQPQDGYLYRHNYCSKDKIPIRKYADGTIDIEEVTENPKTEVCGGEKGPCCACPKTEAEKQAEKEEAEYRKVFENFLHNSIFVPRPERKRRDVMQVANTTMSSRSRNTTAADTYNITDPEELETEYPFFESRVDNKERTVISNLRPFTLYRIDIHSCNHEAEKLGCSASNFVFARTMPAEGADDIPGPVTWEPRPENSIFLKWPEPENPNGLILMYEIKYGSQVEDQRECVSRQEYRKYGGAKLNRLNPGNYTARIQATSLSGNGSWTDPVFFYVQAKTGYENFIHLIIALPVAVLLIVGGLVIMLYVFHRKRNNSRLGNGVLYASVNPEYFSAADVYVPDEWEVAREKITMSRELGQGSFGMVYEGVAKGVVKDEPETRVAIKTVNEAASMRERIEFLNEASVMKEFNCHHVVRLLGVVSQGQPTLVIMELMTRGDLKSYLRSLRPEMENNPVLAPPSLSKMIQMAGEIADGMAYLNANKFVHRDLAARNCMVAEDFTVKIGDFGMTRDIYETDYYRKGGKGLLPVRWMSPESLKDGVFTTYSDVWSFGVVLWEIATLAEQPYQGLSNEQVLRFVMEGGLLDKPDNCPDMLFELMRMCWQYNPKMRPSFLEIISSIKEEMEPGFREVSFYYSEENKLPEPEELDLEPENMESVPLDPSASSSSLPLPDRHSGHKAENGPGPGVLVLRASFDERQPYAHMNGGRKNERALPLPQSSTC
Chain of UniProt Q6V1X1 (whole entry, looked up): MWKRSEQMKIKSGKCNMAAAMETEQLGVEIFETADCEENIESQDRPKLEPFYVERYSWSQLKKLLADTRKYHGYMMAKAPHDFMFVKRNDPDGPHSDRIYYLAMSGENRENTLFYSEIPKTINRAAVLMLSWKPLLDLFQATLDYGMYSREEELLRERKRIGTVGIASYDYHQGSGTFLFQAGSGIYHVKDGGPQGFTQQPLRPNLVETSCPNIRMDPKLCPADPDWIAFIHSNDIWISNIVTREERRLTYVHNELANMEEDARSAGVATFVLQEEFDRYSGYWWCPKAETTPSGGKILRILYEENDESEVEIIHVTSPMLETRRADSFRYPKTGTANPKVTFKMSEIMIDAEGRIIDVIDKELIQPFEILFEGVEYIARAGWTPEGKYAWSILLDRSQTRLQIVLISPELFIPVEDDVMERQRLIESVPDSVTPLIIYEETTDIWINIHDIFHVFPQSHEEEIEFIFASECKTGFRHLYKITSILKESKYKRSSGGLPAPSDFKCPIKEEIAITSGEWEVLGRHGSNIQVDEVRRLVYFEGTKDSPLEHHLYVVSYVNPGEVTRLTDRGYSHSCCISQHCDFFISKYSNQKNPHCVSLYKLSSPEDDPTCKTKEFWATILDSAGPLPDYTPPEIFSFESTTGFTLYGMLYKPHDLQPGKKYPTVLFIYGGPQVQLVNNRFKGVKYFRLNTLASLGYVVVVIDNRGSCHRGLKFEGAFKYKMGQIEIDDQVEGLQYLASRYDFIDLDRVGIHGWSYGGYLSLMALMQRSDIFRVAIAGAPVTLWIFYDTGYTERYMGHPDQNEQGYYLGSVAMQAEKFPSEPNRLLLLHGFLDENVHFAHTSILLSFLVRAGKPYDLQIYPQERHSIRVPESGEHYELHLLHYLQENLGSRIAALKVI
Chain of UniProt Q16288 (whole entry, looked up): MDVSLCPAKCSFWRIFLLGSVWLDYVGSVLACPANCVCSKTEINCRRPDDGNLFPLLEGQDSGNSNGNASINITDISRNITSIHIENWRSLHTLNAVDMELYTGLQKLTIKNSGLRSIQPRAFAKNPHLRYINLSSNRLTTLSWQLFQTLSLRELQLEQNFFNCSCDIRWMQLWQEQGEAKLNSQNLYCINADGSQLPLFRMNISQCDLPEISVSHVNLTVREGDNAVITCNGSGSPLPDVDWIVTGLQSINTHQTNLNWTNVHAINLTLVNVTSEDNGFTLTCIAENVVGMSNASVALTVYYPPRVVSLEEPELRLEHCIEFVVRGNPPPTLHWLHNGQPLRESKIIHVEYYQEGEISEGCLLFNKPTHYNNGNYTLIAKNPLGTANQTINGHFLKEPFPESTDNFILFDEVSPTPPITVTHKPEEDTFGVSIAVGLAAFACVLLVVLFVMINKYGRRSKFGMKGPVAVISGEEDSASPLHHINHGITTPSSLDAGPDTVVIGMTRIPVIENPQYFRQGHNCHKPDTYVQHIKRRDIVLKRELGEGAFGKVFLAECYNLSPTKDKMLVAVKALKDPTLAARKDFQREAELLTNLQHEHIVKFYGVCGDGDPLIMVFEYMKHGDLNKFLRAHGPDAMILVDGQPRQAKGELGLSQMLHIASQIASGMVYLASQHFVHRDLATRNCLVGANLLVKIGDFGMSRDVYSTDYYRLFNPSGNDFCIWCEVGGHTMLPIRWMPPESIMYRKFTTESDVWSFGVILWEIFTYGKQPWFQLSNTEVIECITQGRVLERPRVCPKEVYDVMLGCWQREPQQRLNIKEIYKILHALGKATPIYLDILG

`OC1Cc2ccccc2CC1N1CCC2(C=Cc3ccc(F)cc32)CC1` (racemic) has a selectivity ratio of 32 (Vesicular acetylcholine transporter; rat liver (sigma2); baseline: Ki sigma2 over Ki VAChT).
With `Cc1ccc(S(=O)(=O)NNC(=O)COC(=O)c2ccccc2Nc2cccc(C(F)(F)F)c2)cc1` the selectivity ratio was 1.69 (PTGS2; baseline: COX-1 IC50 over COX-2 IC50).
For `CC1=Cc2ccccc2C12CCN(C1Cc3ccccc3CC1O)CC2` (racemic), the selectivity ratio was 74 (Vesicular acetylcholine transporter; rat liver (sigma2); baseline: Ki sigma2 over Ki VAChT).
For `CC(C)C[C@@H]1C(=O)N[C@H]([C@@H](C)O)C(=O)N[C@H](C)[C@@H](C)C(=O)O[C@@H](Cc2ccccc2)C(=O)N(C)[C@@H](C(C)C)C(=O)N2CCC[C@H]2C(=O)N(C)[C@H](Cc2ccccc2)C2=N[C@@H](CS2)C(=O)N[C@H](C)C2=N[C@@H](CS2)C(=O)N1C`, the selectivity ratio was 9.9 fold (Dipeptidyl peptidase 8 (Homo sapiens, UniProt Q6V1X1); baseline: IC50 DPP4 over DPP8).
`Cn1nccc1[C@]1(CNC(=O)c2ccc(F)c(F)c2-c2ccc(C(F)(F)F)cc2)NC(=O)NC1=O` has a selectivity ratio of over 16700 (Calpain-1 catalytic subunit (CAPN1, Homo sapiens, UniProt P07384); inhibitor; baseline: CAPN1 over target).
The selectivity ratio of `CCn1c(-c2nc3cc(C(=O)N4CCC[C@@H](N)C4)cc(OC)c3n2C)cc2cccnc21` is reported as 36 (Protein-arginine deiminase type-1 (PADI1, Homo sapiens, UniProt Q9ULC6); baseline: Ki PAD1 over PAD4).
With `COc1cc2nccc(Oc3ccc(NC(=O)c4cc5c(n(-c6ccccc6)c4=O)CCCC5=O)nc3)c2cc1OC` the selectivity ratio was over 100 (NT-3 growth factor receptor (NTRK3, Homo sapiens, UniProt Q16288); cell viability, CellTiter-Glo; Ba/F3 expressing recombinant kinase; baseline: NTRK3 IC50 over AXL IC50).
The selectivity ratio of `O=C(COC(=O)c1ccccc1Nc1cccc(C(F)(F)F)c1)NNS(=O)(=O)c1ccccc1` is reported as 5.01 (PTGS2; baseline: COX-1 IC50 over COX-2 IC50).
The relative abundance of `C[C@H]1CN(c2n[nH]c3nc(N[C@H]4CC[C@H](NS(=O)(=O)CCC(F)(F)F)CC4)ncc23)CCO1` is reported as 1.08 (Insulin-like growth factor 1 receptor (IGF1R, Homo sapiens, UniProt P08069); inhibitor, Kinobeads competition profiling; 20 µM; baseline: vehicle).

Some of these lines once more:
The selectivity ratio of `CCn1c(-c2nc3cc(C(=O)N4CCC[C@@H](N)C4)cc(OC)c3n2C)cc2cccnc21` is reported as 36 (Protein-arginine deiminase type-1 (PADI1, Homo sapiens, UniProt Q9ULC6); baseline: Ki PAD1 over PAD4).
